Literature values that unrelated publications cite.
Compare with care: the assays were run in different laboratories. ± marks the error that the study gave.
CNR1: Cannabinoid receptor 1 (CNR1, Homo sapiens, UniProt P21554)

By UniProt entry, the sequences of proteins in these tests, tags left out. Residues count along the entry.
UniProt P21554, whole entry: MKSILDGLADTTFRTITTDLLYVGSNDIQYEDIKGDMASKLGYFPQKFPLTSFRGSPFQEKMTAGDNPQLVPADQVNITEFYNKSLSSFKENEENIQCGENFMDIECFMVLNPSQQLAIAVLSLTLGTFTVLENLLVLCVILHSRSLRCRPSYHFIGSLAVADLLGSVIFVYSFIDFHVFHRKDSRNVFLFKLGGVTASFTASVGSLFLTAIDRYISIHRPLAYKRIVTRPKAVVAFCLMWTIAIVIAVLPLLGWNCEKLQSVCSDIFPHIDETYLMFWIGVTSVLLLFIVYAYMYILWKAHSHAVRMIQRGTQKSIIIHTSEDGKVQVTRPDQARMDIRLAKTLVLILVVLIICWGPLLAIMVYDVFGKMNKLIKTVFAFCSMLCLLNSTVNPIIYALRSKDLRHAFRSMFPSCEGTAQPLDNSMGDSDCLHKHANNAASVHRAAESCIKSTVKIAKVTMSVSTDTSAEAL
UniProt Q9UKV0, whole entry: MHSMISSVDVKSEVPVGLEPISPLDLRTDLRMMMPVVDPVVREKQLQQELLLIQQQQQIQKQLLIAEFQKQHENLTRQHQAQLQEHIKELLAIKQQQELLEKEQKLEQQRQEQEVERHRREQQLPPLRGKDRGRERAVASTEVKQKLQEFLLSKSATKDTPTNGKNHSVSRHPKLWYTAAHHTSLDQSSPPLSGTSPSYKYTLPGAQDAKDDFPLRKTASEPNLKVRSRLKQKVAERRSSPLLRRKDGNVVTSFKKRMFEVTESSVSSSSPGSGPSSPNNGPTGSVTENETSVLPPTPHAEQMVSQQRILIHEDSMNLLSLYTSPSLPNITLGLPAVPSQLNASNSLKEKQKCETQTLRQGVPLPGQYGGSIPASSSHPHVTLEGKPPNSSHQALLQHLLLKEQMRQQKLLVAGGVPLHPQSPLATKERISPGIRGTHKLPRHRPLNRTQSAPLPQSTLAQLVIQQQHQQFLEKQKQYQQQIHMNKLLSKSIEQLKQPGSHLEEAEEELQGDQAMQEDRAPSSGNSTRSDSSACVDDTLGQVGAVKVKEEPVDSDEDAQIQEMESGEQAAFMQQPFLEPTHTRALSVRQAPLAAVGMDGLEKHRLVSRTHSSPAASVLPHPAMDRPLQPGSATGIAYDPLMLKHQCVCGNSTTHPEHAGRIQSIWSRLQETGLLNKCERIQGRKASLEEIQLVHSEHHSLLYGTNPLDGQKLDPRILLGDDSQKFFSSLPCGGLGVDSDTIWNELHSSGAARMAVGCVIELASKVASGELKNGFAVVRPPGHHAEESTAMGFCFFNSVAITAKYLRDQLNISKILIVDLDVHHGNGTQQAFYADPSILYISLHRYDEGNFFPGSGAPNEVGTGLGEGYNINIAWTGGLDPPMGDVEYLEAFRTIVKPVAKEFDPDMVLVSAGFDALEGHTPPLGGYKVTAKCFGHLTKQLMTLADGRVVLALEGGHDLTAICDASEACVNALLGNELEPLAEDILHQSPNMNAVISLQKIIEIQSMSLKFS
UniProt P42575, 170-333 limits assumed: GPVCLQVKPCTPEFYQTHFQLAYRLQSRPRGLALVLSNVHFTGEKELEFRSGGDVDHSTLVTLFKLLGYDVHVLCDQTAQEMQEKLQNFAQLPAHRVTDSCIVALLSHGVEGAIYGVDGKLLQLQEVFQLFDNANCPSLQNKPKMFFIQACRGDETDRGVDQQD
UniProt P42575, 348-452 limits assumed: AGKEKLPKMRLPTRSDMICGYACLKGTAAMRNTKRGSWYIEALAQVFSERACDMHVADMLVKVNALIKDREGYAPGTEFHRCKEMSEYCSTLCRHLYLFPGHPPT
UniProt Q13547, whole entry: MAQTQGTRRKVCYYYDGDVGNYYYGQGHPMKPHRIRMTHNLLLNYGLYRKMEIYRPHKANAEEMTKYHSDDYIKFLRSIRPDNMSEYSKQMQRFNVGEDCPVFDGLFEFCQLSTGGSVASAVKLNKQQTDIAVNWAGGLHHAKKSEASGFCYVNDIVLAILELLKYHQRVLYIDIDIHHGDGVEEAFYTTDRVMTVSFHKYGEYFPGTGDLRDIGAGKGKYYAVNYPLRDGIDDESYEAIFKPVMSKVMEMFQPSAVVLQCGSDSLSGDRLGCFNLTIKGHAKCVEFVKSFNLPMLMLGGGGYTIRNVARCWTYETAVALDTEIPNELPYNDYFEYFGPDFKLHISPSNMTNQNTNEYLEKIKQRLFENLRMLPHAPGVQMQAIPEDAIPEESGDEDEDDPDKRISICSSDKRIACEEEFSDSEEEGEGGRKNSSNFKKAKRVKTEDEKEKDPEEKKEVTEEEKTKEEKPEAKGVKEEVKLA
UniProt P30542, whole entry: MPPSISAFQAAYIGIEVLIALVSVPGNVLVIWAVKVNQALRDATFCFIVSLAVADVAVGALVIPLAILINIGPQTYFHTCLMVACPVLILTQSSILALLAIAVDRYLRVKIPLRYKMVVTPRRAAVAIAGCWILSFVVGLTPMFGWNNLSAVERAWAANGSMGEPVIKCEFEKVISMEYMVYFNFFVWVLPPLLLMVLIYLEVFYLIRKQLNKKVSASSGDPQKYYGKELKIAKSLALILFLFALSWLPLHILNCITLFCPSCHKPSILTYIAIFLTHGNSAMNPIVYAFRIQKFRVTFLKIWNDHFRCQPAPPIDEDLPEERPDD
UniProt P38398, whole entry, looked up: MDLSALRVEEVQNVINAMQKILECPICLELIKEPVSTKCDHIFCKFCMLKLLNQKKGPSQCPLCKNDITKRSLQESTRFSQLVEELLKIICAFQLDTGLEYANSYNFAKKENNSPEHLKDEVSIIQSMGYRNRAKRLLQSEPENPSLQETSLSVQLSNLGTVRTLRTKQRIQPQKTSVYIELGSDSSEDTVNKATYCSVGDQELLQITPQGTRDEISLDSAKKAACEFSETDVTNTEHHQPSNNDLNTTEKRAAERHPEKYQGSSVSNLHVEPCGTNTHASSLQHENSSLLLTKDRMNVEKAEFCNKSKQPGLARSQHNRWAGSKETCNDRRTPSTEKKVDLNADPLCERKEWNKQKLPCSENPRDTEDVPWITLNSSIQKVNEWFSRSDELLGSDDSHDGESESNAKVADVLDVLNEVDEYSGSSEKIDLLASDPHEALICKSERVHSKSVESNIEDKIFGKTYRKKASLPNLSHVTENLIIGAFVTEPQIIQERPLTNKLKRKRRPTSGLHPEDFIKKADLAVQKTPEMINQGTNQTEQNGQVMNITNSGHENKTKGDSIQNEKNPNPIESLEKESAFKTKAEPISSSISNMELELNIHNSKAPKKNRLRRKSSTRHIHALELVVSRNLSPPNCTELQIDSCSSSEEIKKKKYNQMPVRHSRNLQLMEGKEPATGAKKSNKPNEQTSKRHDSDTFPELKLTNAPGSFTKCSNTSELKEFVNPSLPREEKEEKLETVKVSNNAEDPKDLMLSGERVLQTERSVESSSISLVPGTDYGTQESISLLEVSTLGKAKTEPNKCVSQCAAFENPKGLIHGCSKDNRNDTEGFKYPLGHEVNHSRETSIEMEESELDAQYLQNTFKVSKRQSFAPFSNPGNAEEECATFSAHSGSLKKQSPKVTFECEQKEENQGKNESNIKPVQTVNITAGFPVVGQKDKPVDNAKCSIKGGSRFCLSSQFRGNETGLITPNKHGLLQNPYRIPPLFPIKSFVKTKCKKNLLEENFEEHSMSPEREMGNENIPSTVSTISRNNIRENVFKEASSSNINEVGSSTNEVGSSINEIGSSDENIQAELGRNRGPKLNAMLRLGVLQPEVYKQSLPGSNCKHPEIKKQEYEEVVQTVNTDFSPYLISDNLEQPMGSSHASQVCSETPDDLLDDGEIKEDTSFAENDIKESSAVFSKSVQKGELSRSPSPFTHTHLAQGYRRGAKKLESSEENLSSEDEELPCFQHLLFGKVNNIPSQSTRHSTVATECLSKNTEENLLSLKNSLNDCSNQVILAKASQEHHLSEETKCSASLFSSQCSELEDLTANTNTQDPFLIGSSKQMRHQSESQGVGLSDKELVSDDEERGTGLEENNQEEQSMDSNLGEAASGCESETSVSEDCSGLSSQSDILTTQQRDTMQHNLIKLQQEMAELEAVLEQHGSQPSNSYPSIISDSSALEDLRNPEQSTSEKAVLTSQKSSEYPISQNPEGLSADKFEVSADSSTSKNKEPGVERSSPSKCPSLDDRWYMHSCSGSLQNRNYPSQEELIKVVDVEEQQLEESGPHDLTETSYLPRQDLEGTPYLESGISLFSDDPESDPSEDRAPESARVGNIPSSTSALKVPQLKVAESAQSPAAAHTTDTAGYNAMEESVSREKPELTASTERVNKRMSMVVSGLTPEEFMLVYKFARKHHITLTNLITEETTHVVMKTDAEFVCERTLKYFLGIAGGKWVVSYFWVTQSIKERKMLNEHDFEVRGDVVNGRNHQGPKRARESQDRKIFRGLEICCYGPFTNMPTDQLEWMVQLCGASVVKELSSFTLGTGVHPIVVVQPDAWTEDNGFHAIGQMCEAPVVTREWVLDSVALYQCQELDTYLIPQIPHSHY
UniProt O75530, whole entry: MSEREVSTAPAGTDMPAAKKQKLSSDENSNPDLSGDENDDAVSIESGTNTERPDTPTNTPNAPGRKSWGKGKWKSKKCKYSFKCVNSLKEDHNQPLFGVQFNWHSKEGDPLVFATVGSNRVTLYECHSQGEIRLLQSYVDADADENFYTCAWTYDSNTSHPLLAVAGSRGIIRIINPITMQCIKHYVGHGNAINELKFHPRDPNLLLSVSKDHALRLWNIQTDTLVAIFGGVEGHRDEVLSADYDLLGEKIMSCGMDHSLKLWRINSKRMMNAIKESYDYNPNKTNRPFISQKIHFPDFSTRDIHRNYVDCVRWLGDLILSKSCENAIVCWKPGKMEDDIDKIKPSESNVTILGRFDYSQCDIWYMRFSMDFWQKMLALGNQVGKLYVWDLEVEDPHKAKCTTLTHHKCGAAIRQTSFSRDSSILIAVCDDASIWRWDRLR
UniProt P51531, 1378-1506 limits assumed: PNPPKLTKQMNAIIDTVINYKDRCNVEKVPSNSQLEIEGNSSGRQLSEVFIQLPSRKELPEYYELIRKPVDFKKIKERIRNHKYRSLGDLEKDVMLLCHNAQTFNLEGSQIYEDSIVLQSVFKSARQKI
UniProt Q96DB2, whole entry: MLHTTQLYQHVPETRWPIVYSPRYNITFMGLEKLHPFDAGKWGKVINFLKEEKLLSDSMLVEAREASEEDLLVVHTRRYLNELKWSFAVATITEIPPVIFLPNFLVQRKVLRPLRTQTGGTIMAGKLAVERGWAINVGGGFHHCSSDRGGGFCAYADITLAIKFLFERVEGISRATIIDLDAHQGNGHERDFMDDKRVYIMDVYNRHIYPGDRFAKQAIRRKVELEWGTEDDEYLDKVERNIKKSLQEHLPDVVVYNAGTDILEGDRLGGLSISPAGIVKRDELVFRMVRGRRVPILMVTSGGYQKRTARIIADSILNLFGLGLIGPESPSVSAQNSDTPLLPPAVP

SMILES | tested on | test | system | conditions | how to read | quantity | result
CC(=O)N[C@@H](CC(C)C)C(=O)NCC(=O)N[C@@H](CCCCNC(=O)C(F)(F)F)C(=O)Nc1ccc2c(C)cc(=O)oc2c1 | HDAC9 (Homo sapiens, UniProt Q9UKV0) | substrate | – | – | – | Km | 37 µM
CCOC(=O)c1c(C)oc2cc(OC)c(OCc3oc4cc(OC)c(OS(=O)(=O)O)cc4c3C(=O)OCC)cc12 | Prothrombin (F2, Homo sapiens, UniProt P00734) | enzyme activity | – | concentration not given | – | inhibition | 75 ± 1%
CC(=O)N[C@H](C(=O)N[C@@H](CC(=O)O)C(=O)N[C@H](C(=O)N[C@@H](CCN)C(=O)N[C@H](C=O)CC(=O)O)C(C)C)C(C)C | Caspase-2 (Homo sapiens, UniProt P42575) | – | – | – | baseline: caspase-2 over caspase-3 | selectivity ratio | 27.7 fold
CS(=O)(=O)NC1CCN(c2ncnc3c2nc(-c2ccccc2Cl)n3-c2ccc(Cl)cc2)CC1 | CNR1 | antagonist | – | – | – | Ke | 71 nM
O=C(Cc1cccc(Br)c1)Nc1n[nH]c2ccc(N3CCCS3(=O)=O)cc12 | CDK4/6 | kinase activity, inhibitor | – | – | – | IC50 | 5.7 nM
CCCCC(=O)NC1CCN(c2ncnc3c2nc(-c2ccccc2Cl)n3-c2ccc(Cl)cc2)CC1 | CNR1 | antagonist | – | – | – | Ke | 5 nM
CCC(C)NC(=O)CSc1nnc(Nc2ccc(C(C)C)cc2)s1 (stereo not shown) | – | – | PBS | – | – | half-life | > 6.67 h
CC(=O)NCCCC[C@H](NC(=O)CNC(=O)[C@H](CC(C)C)NC(C)=O)C(=O)Nc1ccc2c(C)cc(=O)oc2c1 | HDAC1 (Homo sapiens, UniProt Q13547) | substrate | – | – | – | Km | 5.4 µM
CCC(CC)Nc1nc(Cl)nc2c1ncn2[C@H]1[C@H](O)[C@H](O)[C@@H]2C[C@@H]21 | ADORA1 (Homo sapiens, UniProt P30542) | cAMP production inhibition, agonist | CHO cells, receptor-transfected | 10 µM, added: forskolin | baseline: reference full agonist | Emax | 28.6 ± 3.8%
CC(=O)N[C@@H](CO)C(=O)N[C@@H](CCCNC(=N)N)C(=O)N[C@@H](CO)C(=O)N[C@H](C(=O)N[C@@H](COP(=O)(O)O)C(=O)N1CCC[C@H]1C(=O)N[C@H](C(=O)N[C@@H](Cc1ccccc1)C(=O)N[C@@H](CC(N)=O)C(=O)N[C@@H](CCCCN)C(N)=O)[C@@H](C)O)[C@@H](C)O | Breast cancer type 1 susceptibility protein, BRCT domain (BRCA1, Homo sapiens, UniProt P38398) | binding, ITC | – | – | – | −TΔS | 3.7 ± 0.9 kcal/mol
O=C(CC1CCCCC1)NC1CCN(c2ncnc3c2nc(-c2ccccc2Cl)n3-c2ccc(Cl)cc2)CC1 | CNR1 | binding | – | – | baseline: Ki CB2 over Ki CB1 | selectivity ratio | 1200
CC(C)C[C@H](NC(=O)[C@@H](N)CCCNC(=N)N)C(=O)N[C@@H](CCC(N)=O)C(=O)N[C@@H](C)C(=O)N[C@@H](CCC(N)=O)C(=O)N[C@@H](CCCNC(=N)N)C(=O)N[C@@H](CCCC[N+](C)(C)C)C(=O)N[C@@H](Cc1ccccc1)C(=O)N[C@@H](C)C(=O)N[C@@H](CCC(N)=O)C(=O)N[C@@H](CO)C(=O)N[C@@H](CCC(N)=O)C(=O)N[C@@H](Cc1ccc(O)cc1)C(=O)O | EED (Homo sapiens, UniProt O75530) | – | – | – | baseline: compound over H3K27me3 | affinity ratio | 10 fold
Cc1cc(C)cc(Nc2nccc(-c3c(-c4ccc(F)cc4)ncn3C3CCNCC3)n2)c1 | SMARCA2 (Homo sapiens, UniProt P51531) | – | – | concentration not given | – | inhibition | > 35%
CS(=O)(=O)N(CCCO)c1ccc(Nc2ncc3cnn(C4CCCCCC4)c3n2)cc1 | CDK4/6 | – | – | – | – | IC50 | 1.63 nM
CCCCCCCCCCCCCC(=O)NCCCC[C@H](NC(=O)[C@H](CC(=O)O)NC(=O)[C@@H](NC(=O)[C@H](CCC(=O)O)NC(C)=O)[C@@H](C)O)C(=O)Nc1ccc2c(C)cc(=O)oc2c1 | HDAC11 (Homo sapiens, UniProt Q96DB2) | substrate | – | – | – | Km | 62 µM
O=S(=O)(NC1CCN(c2ncnc3c2nc(-c2ccccc2Cl)n3-c2ccc(Cl)cc2)CC1)c1ccccc1 | CNR1 | binding | – | – | baseline: Ki CB2 over Ki CB1 | selectivity ratio | 5100
